Measurements pooled from the literature.
Each line is one published result; not all experiments were run side by side. Numbers after ± are the reported error.

`COC(=O)Cn1c2ccc([N+](=O)[O-])cc2c(=O)n1Cc1ccccc1` has an IC50 of 580 nM (Leishmania amazonensis; parasite growth, resazurin; promastigote).
For `O=C1NC(=O)C2(NC1Cc1ccccc1)C1CC3CC(C1)CC2C3` (centres unmarked), the IC50 was 18500 nM (Trypanosoma brucei; parasite growth; pH 7.4, blood stage).
`O=C(Oc1cc(OC(=O)c2cc(O)c(O)c(O)c2)c2ccccc2c1)c1cc(O)c(O)c(O)c1` has an IC50 of 1970 nM (Human alphaherpesvirus 2; viral replication, inhibitor, qPCR; BEAS-2B).
The IC50 of `O=C(O)CN1C(=O)[C@H](Cc2ccccc2)NC2(C1=O)C1CC3CC(C1)CC2C3` (some centres unmarked) is reported as 111000 nM (Trypanosoma brucei; parasite growth; pH 7.4, blood stage).
With `O=c1c2cc([N+](=O)[O-])ccc2n(CCBr)n1Cc1ccccc1` the IC50 was 1190 nM (Leishmania amazonensis; parasite growth, resazurin; promastigote).
The IC50 of `CNCc1ccc2c(c1)N(C(=O)OCc1c(F)c(F)c(F)c(F)c1F)[C@H](CNC(=N)N)[C@H]2NC(=O)C(=O)Nc1ccc(Cl)c(F)c1` is reported as 7060 nM (HIV-1; pseudovirus infection, Env pseudovirus neutralisation; TZM-bl, clade C T/F isolate 2A2).
`NC(=O)CCCn1c2ccc([N+](=O)[O-])cc2c(=O)n1Cc1ccccc1` gave an IC50 of 770 nM (Leishmania amazonensis; parasite growth, resazurin; promastigote).
`CCCOC(=O)N1c2cc(CNC)ccc2[C@H](NC(=O)C(=O)Nc2ccc(Cl)c(F)c2)[C@H]1CNC(=N)N` gave an IC50 of 49 nM (HIV-1; pseudovirus infection, Env pseudovirus neutralisation; TZM-bl, clade B transmitted/founder).
`CC[n+]1cccc2cc(/C=N/NC(=O)c3cccc(C(=O)N/N=C/c4ccc5c(ccc[n+]5CC)c4)n3)ccc21` gave a ΔTm of 8.7 ± 0.2 °C (MYC parallel G4 DNA; FRET melting; 1 µM, DNA 0.2 µM, together with: duplex DNA competitor 10 µM).
With `COC1C=COC2(C)Oc3c(C)c(O)c4c(c3C2=O)C2=NC3(CCN(CC(C)C)CC3)NC2=C(NC(=O)C(C)=CC=CC(C)C(O)C(C)C(O)C(C)C(OC(=O)Nc2cccnn2)C1C)C4=O` (centres unmarked) the IC50 was 34 nM (Mycobacteroides abscessus; bacterial growth; subsp. massiliense 097 clinical isolate; rough, slow grower).
For `CCCCCCCCCCCCCCC[C@@H](O)[C@H](CO)NC(=O)N[C@@H](CCC(N)=O)C(=O)N[C@@H](CCCCN)C(=O)N[C@H](C(=O)N[C@@H](C)C(=O)N[C@@H](CCCNC(=N)N)C(=O)N[C@@H](CC(C)C)C(=O)N[C@@H](CCC(N)=O)C(=O)N[C@H](C(=O)N[C@@H](CC(C)C)C(=O)N[C@@H](Cc1c[nH]c2ccccc12)C(=O)N[C@@H](CC(C)C)C(=O)N[C@@H](CCC(N)=O)C(=O)N[C@H](C(=O)NCC(=O)N[C@H](C(=O)N[C@@H](CC(C)C)C(=O)N[C@@H](CC(C)C)C(N)=O)C(C)C)[C@@H](C)CC)[C@@H](C)O)[C@@H](C)CC`, the IC50 was over 4000 nM (HIV-1 HXB2; viral infection, luciferase reporter; TZM-bl).
For `CNCc1ccc2c(c1)C[C@H](CNC(=N)N)[C@H]2NC(=O)C(=O)Nc1ccc(Cl)c(F)c1`, the IC50 was over 100000 nM (HIV-1; pseudovirus infection, Env pseudovirus neutralisation; TZM-bl, clade C T/F isolate 2A2).
`COC(=O)CCn1c2ccc([N+](=O)[O-])cc2c(=O)n1Cc1ccccc1` has an IC50 of 610 nM (Leishmania amazonensis; parasite growth, resazurin; promastigote).
For `CC[n+]1cccc2cc(/C=N/NC(=O)c3cc(C(=O)N/N=C/c4ccc5c(ccc[n+]5CC)c4)ncn3)ccc21`, the ΔTm was 3.2 ± 0.7 °C (MYC parallel G4 DNA; FRET melting; 1 µM, DNA 0.2 µM).

Excerpt of the above:
For `O=C1NC(=O)C2(NC1Cc1ccccc1)C1CC3CC(C1)CC2C3` (centres unmarked), the IC50 was 18500 nM (Trypanosoma brucei; parasite growth; pH 7.4, blood stage).
`O=C(Oc1cc(OC(=O)c2cc(O)c(O)c(O)c2)c2ccccc2c1)c1cc(O)c(O)c(O)c1` has an IC50 of 1970 nM (Human alphaherpesvirus 2; viral replication, inhibitor, qPCR; BEAS-2B).
